Measurements gathered from unrelated publications.
Target: Serine/threonine-protein kinase VRK2 (VRK2, Homo sapiens, UniProt Q86Y07)
UniProt Q86Y07, sequence (whole entry, looked up): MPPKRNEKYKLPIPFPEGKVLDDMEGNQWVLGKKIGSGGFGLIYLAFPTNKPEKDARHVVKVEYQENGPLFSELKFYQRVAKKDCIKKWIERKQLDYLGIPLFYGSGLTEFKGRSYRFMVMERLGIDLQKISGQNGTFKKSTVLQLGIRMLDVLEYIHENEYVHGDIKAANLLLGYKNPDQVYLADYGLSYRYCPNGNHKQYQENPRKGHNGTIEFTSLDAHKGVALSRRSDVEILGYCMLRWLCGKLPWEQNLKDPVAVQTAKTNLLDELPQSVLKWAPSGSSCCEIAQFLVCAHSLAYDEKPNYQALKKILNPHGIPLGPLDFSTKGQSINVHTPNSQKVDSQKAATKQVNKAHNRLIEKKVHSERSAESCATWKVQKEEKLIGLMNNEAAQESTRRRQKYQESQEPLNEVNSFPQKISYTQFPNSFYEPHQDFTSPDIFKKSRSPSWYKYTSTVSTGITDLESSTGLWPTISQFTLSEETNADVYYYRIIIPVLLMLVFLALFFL

Structure (SMILES) = C=CC(=O)N1CCc2ccc(-n3c(=O)ccc4cnc5ccc(-c6cnn(C)c6)cc5c43)cc21; assay = KINOMEscan; setting = 1 µM; scale = reference: DMSO control; quantity = remaining binding; value = 89%
Structure (SMILES) = Cc1cnc2nc1Nc1cccc(c1)COC/C=C/COCc1cc(ccc1OCCN1CCOCC1)N2; assay = binding, competition with immobilised ligand; setting = 0.1 µM; quantity = remaining binding; value = 76%
Structure (SMILES) = O=C=[N][Ru-4]123([n]4c5ccc(O)cc5c5c6c(c7cc(F)c[n+]1c7c54)C(=O)NC6=O)[S+]1CC[S+]2CC[S+]3CC1 (stereo not drawn); assay = enzyme activity; setting = 100 nM, human enzyme, added: 10 µM ATP; scale = reference: untreated; quantity = remaining activity; value = 77%
Structure (SMILES) = CCN1CCN(Cc2ccc(NC(=O)c3ccc(C)c(NC(=O)c4cncc(-c5cnn(C)c5)c4)c3)cc2C(F)(F)F)CC1; assay = binding, competition with immobilised ligand; setting = 1 µM; quantity = remaining binding; value = 100%
Structure (SMILES) = NC(=O)C[C@H]1CCc2sc3ncnc(O[C@H]4CC[C@H](N5CCOCC5)CC4)c3c21; assay = enzyme activity, inhibitor; setting = 10 µM; quantity = inhibition; value = -3%
Structure (SMILES) = COc1cc(Nc2nc(C)cc(-c3cnn4nc(OC)ccc34)n2)cc(C(F)(F)F)c1; assay = binding, competition with immobilised ligand; setting = 1 µM; quantity = remaining binding; value = 100%
Structure (SMILES) = Cc1ccc(-c2c(/C=C(\C#N)C(=O)NC(C)C)n(CCCO)c3ncnc(N)c23)cc1; assay = cell-free assay, competition with immobilised ligand; setting = 1 µM; quantity = remaining binding; value = 100%
Structure (SMILES) = CN1CCN(Cc2ccc(-c3ccc(CO[C@H]4CCC[C@@H]4NC(=O)c4cc(-c5cnn(C)c5)cnc4N)cc3)cc2)CC1; assay = enzyme activity, inhibitor; setting = 0.1 µM; quantity = inhibition; value = 11%
Structure (SMILES) = C=CC(=O)Nc1cc(-c2nn(C3CCN(CCNC(=O)[C@H](C)CCC45CC6CC(CC(C6)C4)C5)CC3)c3ncnc(N)c23)ccc1Oc1ccccc1; assay = inhibitor, KiNativ profiling; test system = biochemical; setting = 2 µM; quantity = inhibition; value = 17.9%
Structure (SMILES) = COc1ccc(NC(=O)Nc2ccc3c(c2)C(=O)N(C(C)CO)CC(C)C(CN(C)Cc2ccc4c(c2)OCO4)O3)cc1 (stereo not drawn); assay = kinase activity, KinaseProfiler; setting = 0.03 µM, species human; scale = reference: control; quantity = remaining activity; value = 93%
Structure (SMILES) = O=C(Cc1ccc(OCc2ccccc2)cc1)NC1(C(=O)O)CCN(C(=O)c2ccc(-c3cccc(Cl)c3)cc2)CC1; assay = enzyme activity, inhibitor; setting = 10 µM; quantity = activity vs control; value = 97%
Structure (SMILES) = Cc1cc(NC(=O)[C@H](O)c2cc(F)cc(F)c2)ccc1-c1cnc(N)c(C(=O)NC(C)C)c1; assay = binding, competition with immobilised ligand; setting = 1 µM; quantity = remaining binding; value = 57%
Structure (SMILES) = Nc1ncc2c(n1)-c1c([nH]c3ccc(C4=CCOCC4)cc13)CCC2; assay = binding, competition with immobilised ligand; setting = 1 µM; quantity = remaining binding; value = 73%
Structure (SMILES) = COc1c(OCCCN2CCOCC2)ccc2c1N=C(NC(=O)c1cnc(N)nc1)N1CCN=C21; assay = kinase activity, inhibitor; setting = 1 µM; scale = reference: untreated control; quantity = remaining activity; value = 109%
Structure (SMILES) = Nc1ncc(-c2cc(-c3cnn(CC(F)(F)F)c3)ncc2F)nc1C(=O)NC1CNCC(F)C1 (stereo not drawn); assay = enzyme activity; setting = 1 µM; scale = reference: DMSO control; quantity = remaining activity; value = 92%

A few entries again:
Structure (SMILES) = O=C=[N][Ru-4]123([n]4c5ccc(O)cc5c5c6c(c7cc(F)c[n+]1c7c54)C(=O)NC6=O)[S+]1CC[S+]2CC[S+]3CC1 (stereo not drawn); assay = enzyme activity; setting = 100 nM, human enzyme, added: 10 µM ATP; scale = reference: untreated; quantity = remaining activity; value = 77%
